Measured values collected from several papers.
Each line is one published result; not all experiments were run side by side. Several values in a cell are separate wells, animals, samples, runs or records. ± gives the spread as reported. ≈ marks a conversion by molar mass, not a printed value.

O=C(NCCc1ncc(C(F)(F)F)cc1Cl)c1ccccc1C(F)(F)F — inhibition (Fusarium graminearum; fungal growth, inhibitor; 50 µg/mL): 88.1 ± 2.1%
OCC1=C(F)[C@@H](n2nnc3c(NO)ncnc32)[C@H](O)[C@@H]1O — EC50 (influenza virus; viral cytopathic effect, MTT; MDCK; 72 h): > 100 µM
COc1cc2c(Oc3ccc4[nH]c(C)cc4c3F)ccnc2cc1OCC1(N)CC1 — Cholesterol elevation incidence (paediatric refractory sarcoma patients; 8 mg): 0%
CS(=O)(=O)Nc1ncn(-c2cc(F)c(COc3ccc(OS(=O)(=O)F)cc3)c(F)c2)n1 — MIC (Mycobacterium tuberculosis; NIH_G36, drug-resistant, lineage 2): 9.8 nM (≈ 4.69 ng/mL)
Nc1ncc(Br)c2c1ncn2[C@@H]1C=C(CO)[C@@H](O)[C@H]1O — IC90 (vesicular stomatitis virus; viral replication; wild type GFP reporter): < 1 µM
O=c1[nH]cnc2c1nnn2[C@@H]1C(F)=C(CO)[C@@H](O)[C@H]1O — EC50 (influenza virus; viral cytopathic effect, MTT; MDCK; 72 h): > 100 µM
OC(Cn1cncn1)(Cn1cncn1)c1ccc(F)cc1F — OD600 (Saccharomyces cerevisiae; cell growth; Pdr5 deleted, empty vector; 2^-4.322 µg/mL): 1.02 and 1 and 0.999
CCOC(=O)C1=C[C@@H](OC(CC)CC)[C@H](NC(C)=O)[C@@H](N)C1 — EC50 (influenza virus; viral cytopathic effect, MTT; MDCK; 72 h): 0.13 µM
O=C(NNc1cc(F)ccc1F)c1nnc(CC23CC4CC(CC(C4)C2)C3)o1 — EC50 (Fusarium graminearum; fungal growth, inhibitor): 1.6 ± 0.09 µg/mL
COc1cc(NC(=O)Cn2ccc3cc(F)c(-c4cnn(C)c4)cc32)cc(OC)c1OC — IC90 fold shift (Plasmodium falciparum; recrudescent Dd2-B2, PfATP4 V178I; flask 1; relative to: Dd2-B2): 136
O=c1[nH]c(=O)n([C@H]2C[C@H](O)[C@@H](CO)O2)cc1/C=C/Br — EC50 (vesicular stomatitis virus; viral replication; HEL): > 250 µM
O=C(NNc1cccc(Cl)c1)c1nnc(CC23CC4CC(CC(C4)C2)C3)o1 — inhibition (Fusarium graminearum; fungal growth, inhibitor; 50 µg/mL): 74.2 ± 0.7%
Nc1nc2c(ncn2COCCO)c(=O)[nH]1 — EC50 (vesicular stomatitis virus; viral replication; HEL): > 250 µM
Cc1ccc(NNC(=O)c2nnc(CC34CC5CC(CC(C5)C3)C4)o2)cc1 — inhibition (Fusarium graminearum; fungal growth, inhibitor; 50 µg/mL): 47.9 ± 2.3%
CNc1ncnc2c1nnn2[C@@H]1C(F)=C(CO)[C@@H](O)[C@H]1O — EC50 (influenza virus; viral cytopathic effect, MTT; MDCK; 72 h): > 100 µM
O=C(NNc1ccc(F)c(F)c1)c1nnc(CC23CC4CC(CC(C4)C2)C3)o1 — EC50 (Fusarium graminearum; fungal growth, inhibitor): 0.92 ± 0.03 µg/mL
C=C(CN(C(=O)c1c(C(F)F)nn(C)c1F)C1CC1)c1ccc(Cl)cc1Cl — EC50 (Fusarium graminearum; spore germination): 0.0814 µg/mL

Some of these lines once more:
O=c1[nH]cnc2c1nnn2[C@@H]1C(F)=C(CO)[C@@H](O)[C@H]1O — EC50 (influenza virus; viral cytopathic effect, MTT; MDCK; 72 h): > 100 µM
OC(Cn1cncn1)(Cn1cncn1)c1ccc(F)cc1F — OD600 (Saccharomyces cerevisiae; cell growth; Pdr5 deleted, empty vector; 2^-4.322 µg/mL): 1.02 and 1 and 0.999
